Measurements gathered from unrelated publications.
Each line is one published result; not all experiments were run side by side. Values joined by “and” are separate records of one study, mostly repeats; a detail may differ. ± gives the spread as reported.

Compound | tested on | test | system | conditions | how to read | endpoint | result
O=C(NCc1cc(F)cc(F)c1)[C@@]1(O)CCN(c2ccc3[nH]ccc3c2)C1=O |  |  | sample I PDX mouse | dose not given, RTV endpoint 500% |  | median survival time | 31 days
FC(F)(F)c1cccc(CNc2nc(NC3CCN(Cc4ccccc4)CC3)c3nc[nH]c3n2)c1 | Cryptococcus neoformans | RNA-seq, measured: CNAG_05320 |  | 48 µg/mL, 3 h | reference: untreated | mRNA fold change | 1.31
NC[C@]1(CC(=O)O)CC[C@@H]([18F])CC1 |  | PET kinetic modelling | rhesus monkey, whole brain | dose not given, with: gabapentin pre-injection | reference: baseline | VT change | 11%
COc1ccccc1-c1n[nH]c2nc(NC3CCN(C(=O)Cc4ccc(F)cc4F)CC3)ncc12 |  | bead binding, competition bead pull-down, measured: LINJ.27.2570 | Leishmania donovani axenic amastigote extract | 10 µM | reference: vehicle | relative abundance | 0.13
CCc1nc2ccc(C(F)(F)F)cn2c1C(=O)NCc1ccc2oc(-c3ccc(OC(F)(F)F)cc3)nc2c1 | Mycolicibacterium smegmatis |  |  |  |  | MIC90 | > 100 µM
CSCC[C@H](N)C(=O)N[C@@H](C)C(=O)N[C@@H](CCCNC(=N)N)C(=O)N[C@@H](CCCNC(=N)N)C(=O)N[C@@H](CC(=O)O)C(=O)N[C@@H](CCCCN)C(=O)N[C@H](C(=O)N[C@@H](CC(=O)O)C(=O)N[C@@H](Cc1ccccc1)C(=O)N[C@@H](C)C(=O)N[C@@H](CCCNC(=N)N)C(=O)N[C@@H](CCCNC(=N)N)C(=O)N[C@@H](CCCNC(=N)N)C(=O)N[C@@H](CCCNC(=N)N)C(=O)NCCCCCC(=O)NCCCCC(NC(=O)CCCCCNC(=O)[C@H](CCCNC(=N)N)NC(=O)[C@H](CCCNC(=N)N)NC(=O)[C@H](CCCNC(=N)N)NC(=O)[C@H](CCCNC(=N)N)NC(=O)[C@H](C)NC(=O)[C@H](Cc1ccccc1)NC(=O)[C@H](CC(=O)O)NC(=O)[C@@H](NC(=O)[C@H](CCCCN)NC(=O)[C@H](CC(=O)O)NC(=O)[C@H](CCCNC(=N)N)NC(=O)[C@H](CCCNC(=N)N)NC(=O)[C@H](C)NC(=O)[C@@H](N)CCSC)[C@@H](C)O)C(=O)NCCCCC(NC(=O)C(CCCCNC(=O)CCCCCNC(=O)[C@H](CCCNC(=N)N)NC(=O)[C@H](CCCNC(=N)N)NC(=O)[C@H](CCCNC(=N)N)NC(=O)[C@H](CCCNC(=N)N)NC(=O)[C@H](C)NC(=O)[C@H](Cc1ccccc1)NC(=O)[C@H](CC(=O)O)NC(=O)[C@@H](NC(=O)[C@H](CCCCN)NC(=O)[C@H](CC(=O)O)NC(=O)[C@H](CCCNC(=N)N)NC(=O)[C@H](CCCNC(=N)N)NC(=O)[C@H](C)NC(=O)[C@@H](N)CCSC)[C@@H](C)O)NC(=O)CCCCCNC(=O)[C@H](CCCNC(=N)N)NC(=O)[C@H](CCCNC(=N)N)NC(=O)[C@H](CCCNC(=N)N)NC(=O)[C@H](CCCNC(=N)N)NC(=O)[C@H](C)NC(=O)[C@H](Cc1ccccc1)NC(=O)[C@H](CC(=O)O)NC(=O)[C@@H](NC(=O)[C@H](CCCCN)NC(=O)[C@H](CC(=O)O)NC(=O)[C@H](CCCNC(=N)N)NC(=O)[C@H](CCCNC(=N)N)NC(=O)[C@H](C)NC(=O)[C@@H](N)CCSC)[C@@H](C)O)C(N)=O)[C@@H](C)O (stereo partly drawn) |  | micro-CT of femur | mouse C57BL/6 female, RANKL-induced bone loss, femur | intraperitoneal, 130 mg/kg, 50 h, with: RANKL |  | trabecular separation | 1290 µm
COc1ccccc1-c1n[nH]c2nc(N[C@H]3CC[C@H](NS(=O)(=O)CC(C)C)CC3)ncc12 |  | bead binding, competition bead pull-down, measured: LINJ.34.0150 | Leishmania donovani extract | 10 µM | reference: vehicle | relative abundance | 1.21
CC(C)C[C@@H]1NC(=O)CNC(=O)[C@H](Cc2c[nH]cn2)NC(=O)[C@H](C)NC(=O)[C@H](CO)NC(=O)[C@H](CCC(N)=O)NC(=O)[C@@H](NC(=O)CN)CSSC[C@@H]2NC(=O)CNC(=O)[C@H](C)NC(=O)[C@H](CC(C)C)NC(=O)[C@@H]3CSSC[C@@H](C(=O)NCC(=O)O)NC(=O)[C@H](Cc4ccccc4)NC(=O)CNC(=O)[C@H](CC(N)=O)NC(=O)[C@@H]4CCCN4C(=O)CNC(=O)[C@H](CSSC[C@H](NC(=O)[C@H](CCCNC(=N)N)NC(=O)[C@H](CC(N)=O)NC(=O)[C@H](Cc4c[nH]cn4)NC(=O)[C@H](CCCCN)NC1=O)C(=O)N[C@@H](CCCCN)C(=O)N[C@@H](CCC(N)=O)C(=O)N[C@@H](CC(=O)O)C(=O)N[C@@H](CO)C(=O)N[C@@H](CC(=O)O)C(=O)N3)NC(=O)[C@H](C(C)C)NC2=O | HEK293, Wnt1-transfected | Wnt signalling |  |  |  | IC50 | > 100 µM
CCn1ccc(-c2cc([C@@H](C)NC(=O)c3cc(N4CC5CCC(C4)N5C)ccc3C)c3ccccc3n2)n1 | Vero E6 |  |  | 15.62 µM |  | viability | 96% and 55.8% and 87.5%
CCN(CC)C(=O)[C@@H]1C=C2c3cccc4c3c(cn4C(=O)c3cccs3)C[C@H]2N(C)C1 |  | magnetometer detection | mouse C57BL/6J male | intraperitoneal, dose not given, maximally active doses, 5 min blocks |  | time to peak head-twitch response | 5 to 10 min
CC(C)(C)C(=O)OCOP(=O)(OCOC(=O)C(C)(C)C)C1CCCN(O)C1=O (stereo not drawn) | NCI/ADR-RES |  |  |  |  | Log10GI50 | -6.36 log M
CC(C)C[C@@H]1NC(=O)[C@@H]2CSSC[C@@H](C(=O)NCC(=O)O)NC(=O)[C@H](Cc3ccccc3)NC(=O)CNC(=O)[C@H](CC(N)=O)NC(=O)[C@@H]3CCCN3C(=O)CNC(=O)[C@@H]3CSSC[C@H](NC(=O)[C@H](CCCNC(=N)N)NC(=O)[C@H](CC(N)=O)NC(=O)[C@H](Cc4c[nH]cn4)NC(=O)[C@H](CCCCN)NC(=O)[C@H](C)NC(=O)CNC(=O)[C@H](Cc4c[nH]cn4)NC(=O)[C@H](C)NC(=O)[C@H](CO)NC(=O)[C@H](CCC(N)=O)NC(=O)[C@@H](NC(=O)CN)CSSC[C@H](NC(=O)CNC(=O)[C@H](C)NC1=O)C(=O)N[C@@H](C(C)C)C(=O)N3)C(=O)N[C@@H](CCCCN)C(=O)N[C@@H](CCC(N)=O)C(=O)N[C@@H](CC(=O)O)C(=O)N[C@@H](CO)C(=O)N[C@@H](CC(=O)O)C(=O)N2 | HEK293, Wnt1-transfected | Wnt signalling |  |  |  | IC50 | > 100 µM
CCc1nc2ccc(C(F)(F)F)cn2c1C(=O)NCc1ccc2oc(-c3ccc(Cl)cc3)nc2c1 | Mycolicibacterium smegmatis |  |  | 72 h |  | MIC | > 100 µM
O=C(O)c1ccc(-c2nc(-c3ccccc3Cl)c3sccn23)cc1 |  |  | C57BL/6 mice | dose not given, day 11, basal hematopoiesis |  | platelet count change | 81.6% and 89.8% and 97% and 116%
CC(C)CC(C(=O)N1CC2(CC1C#N)C(=O)Nc1ccccc12)N(C)C(=O)c1cc2c(F)cc(F)c(F)c2[nH]1 (stereo not drawn) | human coronavirus 229E | viral replication | MRC-5 | 0.1 µM |  | inhibition | 100%
CC[C@H](C)CCCCC(=O)N[C@@H](CCN)C(=O)N[C@H](C(=O)N[C@@H](CCN)C(=O)N[C@H]1CCNC(=O)[C@H]([C@@H](C)O)NC(=O)[C@H](CCN)NC(=O)[C@H](CCN)NC(=O)[C@H](CC(C)C)NC(=O)[C@@H](CC(C)C)NC(=O)[C@H](CCN)NC1=O)[C@@H](C)O | Escherichia coli | daily serial passaging | ATCC 8739 | highest sub-MIC, 39 days | reference: initial MIC | MIC fold change | 1.37
Cc1ccc(N2CC3CC(C2)N3C)cc1C(=O)NC1(c2ccc3c4c(cccc24)C(=O)N3C)CC1 | quail-PLpro | enzyme activity, inhibitor |  | 100 µM |  | inhibition | 29.5% and 29.2%
O=C1NC2(CC2)COc2ncc(F)cc2[C@H]2COCCN2c2ccn3ncc1c3n2 |  |  | Sprague-Dawley rat, female, thymus | oral, 10 mg/kg/day, 4 weeks, end of treatment |  | organ-to-body weight ratio | 0.18 ± 0.036%
O=C(O)C(Cl)Cl.OCCN(CCO)CCO | Amaranthus retroflexus | herbicidal activity |  | 15 mg/mL, 21 days, pre-emergence greenhouse |  | inhibition | 0%
Cc1cc(C(=O)Nc2nc3cccc(C)c3n2[C@H]2CCCCN(C(=O)/C=C/CN(C)C)C2)ccn1 | Trypanosoma brucei | cell growth, Alamar Blue | 2T1 overexpressing Tb927.6.4970 |  | reference: parental 2T1 | EC50 fold shift | 0.68 fold and 0.6 fold
CCc1nn(C)c2nc(-c3ccc(C(=O)O)cc3)nc(NCc3ccccc3)c12 | Cryptosporidium parvum |  | HCT-8 | 6 x EC90, 48 h | reference: DMSO control | parasite number | 27.6% and 23.6% and 44.3% and 28.3%
CC[C@H](C)[C@H](NC(=O)[C@H](CC(C)C)NC(=O)[C@H](CC(C)C)NC(=O)[C@H](CC(=O)O)NC(=O)[C@@H](NC(=O)[C@H](CCC(=O)O)NC(=O)[C@H](CCCCN)NC(=O)[C@H](Cc1ccc(O)cc1)NC(=O)[C@H](CCCCN)NC(=O)[C@H](Cc1c[nH]cn1)NC(=O)CNC(=O)CN)[C@@H](C)O)C(=O)N[C@@H](CC(C)C)C(=O)N[C@@H](Cc1ccccc1)C(=O)N[C@@H](CCCCN)C(=O)N[C@@H](CC(=O)O)C(=O)N[C@@H](CC(=O)O)C(=O)N[C@@H](Cc1ccc(O)cc1)C(=O)N[C@@H](Cc1ccccc1)C(=O)N[C@@H](C)C(=O)N[C@@H](CCCCN)C(=O)N[C@@H](CCCCN)C(=O)N[C@@H](CC(N)=O)C(=O)N[C@@H](CCC(=O)O)C(=O)N[C@@H](CCC(=O)O)C(=O)N[C@@H](CCCNC(=N)N)C(=O)N[C@@H](CCCCN)C(N)=O | HCV IRES RNA | RNA cleavage, MALDI-TOF mass spectrometry | hepatitis C virus |  |  | initial rate | 4.5 ± 1.4 %/min
CCc1nc2ccc(Br)cn2c1C(=O)NCc1ccc2oc(-c3ccc(OC(F)(F)F)cc3)nc2c1 | Mycolicibacterium smegmatis |  |  |  |  | MIC90 | > 100 µM
Cc1cc(Oc2nc(N3CC[C@@H](c4ccncc4)C3)ncc2F)[nH]n1 | Mycobacterium tuberculosis | OD | H37Rv PurF CRISPRi knockdown | 0.25 µM, with: anhydrotetracycline low |  | normalised growth | 2%
Cc1ccc(OCCN(C)C)cc1C(=O)N[C@H](C)c1cc(-c2cnn(CC(=O)N(C)C)c2)nc2ccccc12 | African green monkey cells |  |  | 125 µM |  | viability | 104%
CN1C(=O)C(C2C3=C(CCCC3=O)Oc3ccc(Cl)cc32)C(=O)N(C)C1=O (stereo not drawn) | 3T3-L1 pre-adipocytes | cell viability, MTT |  | 72 h |  | IC50 | 55.6 ± 2.03 µg/mL
[2H]C([2H])([18F])[C@]([2H])(N)C(=O)O | U-87 MG tumour model |  | host not given | 5 min |  | maximum cellular uptake | 14.4 ± 0.6 %ID/100 µg protein

Excerpt of the above:
Compound | tested on | test | system | conditions | how to read | endpoint | result
CCn1ccc(-c2cc([C@@H](C)NC(=O)c3cc(N4CC5CCC(C4)N5C)ccc3C)c3ccccc3n2)n1 | Vero E6 |  |  | 15.62 µM |  | viability | 96% and 55.8% and 87.5%
CSCC[C@H](N)C(=O)N[C@@H](C)C(=O)N[C@@H](CCCNC(=N)N)C(=O)N[C@@H](CCCNC(=N)N)C(=O)N[C@@H](CC(=O)O)C(=O)N[C@@H](CCCCN)C(=O)N[C@H](C(=O)N[C@@H](CC(=O)O)C(=O)N[C@@H](Cc1ccccc1)C(=O)N[C@@H](C)C(=O)N[C@@H](CCCNC(=N)N)C(=O)N[C@@H](CCCNC(=N)N)C(=O)N[C@@H](CCCNC(=N)N)C(=O)N[C@@H](CCCNC(=N)N)C(=O)NCCCCCC(=O)NCCCCC(NC(=O)CCCCCNC(=O)[C@H](CCCNC(=N)N)NC(=O)[C@H](CCCNC(=N)N)NC(=O)[C@H](CCCNC(=N)N)NC(=O)[C@H](CCCNC(=N)N)NC(=O)[C@H](C)NC(=O)[C@H](Cc1ccccc1)NC(=O)[C@H](CC(=O)O)NC(=O)[C@@H](NC(=O)[C@H](CCCCN)NC(=O)[C@H](CC(=O)O)NC(=O)[C@H](CCCNC(=N)N)NC(=O)[C@H](CCCNC(=N)N)NC(=O)[C@H](C)NC(=O)[C@@H](N)CCSC)[C@@H](C)O)C(=O)NCCCCC(NC(=O)C(CCCCNC(=O)CCCCCNC(=O)[C@H](CCCNC(=N)N)NC(=O)[C@H](CCCNC(=N)N)NC(=O)[C@H](CCCNC(=N)N)NC(=O)[C@H](CCCNC(=N)N)NC(=O)[C@H](C)NC(=O)[C@H](Cc1ccccc1)NC(=O)[C@H](CC(=O)O)NC(=O)[C@@H](NC(=O)[C@H](CCCCN)NC(=O)[C@H](CC(=O)O)NC(=O)[C@H](CCCNC(=N)N)NC(=O)[C@H](CCCNC(=N)N)NC(=O)[C@H](C)NC(=O)[C@@H](N)CCSC)[C@@H](C)O)NC(=O)CCCCCNC(=O)[C@H](CCCNC(=N)N)NC(=O)[C@H](CCCNC(=N)N)NC(=O)[C@H](CCCNC(=N)N)NC(=O)[C@H](CCCNC(=N)N)NC(=O)[C@H](C)NC(=O)[C@H](Cc1ccccc1)NC(=O)[C@H](CC(=O)O)NC(=O)[C@@H](NC(=O)[C@H](CCCCN)NC(=O)[C@H](CC(=O)O)NC(=O)[C@H](CCCNC(=N)N)NC(=O)[C@H](CCCNC(=N)N)NC(=O)[C@H](C)NC(=O)[C@@H](N)CCSC)[C@@H](C)O)C(N)=O)[C@@H](C)O (stereo partly drawn) |  | micro-CT of femur | mouse C57BL/6 female, RANKL-induced bone loss, femur | intraperitoneal, 130 mg/kg, 50 h, with: RANKL |  | trabecular separation | 1290 µm
Cc1cc(C(=O)Nc2nc3cccc(C)c3n2[C@H]2CCCCN(C(=O)/C=C/CN(C)C)C2)ccn1 | Trypanosoma brucei | cell growth, Alamar Blue | 2T1 overexpressing Tb927.6.4970 |  | reference: parental 2T1 | EC50 fold shift | 0.68 fold and 0.6 fold
